# Published values of several laboratories.
# Numbers after ± are the reported error.
# Chain of UniProt P04062 (whole entry, unmodified, looked up): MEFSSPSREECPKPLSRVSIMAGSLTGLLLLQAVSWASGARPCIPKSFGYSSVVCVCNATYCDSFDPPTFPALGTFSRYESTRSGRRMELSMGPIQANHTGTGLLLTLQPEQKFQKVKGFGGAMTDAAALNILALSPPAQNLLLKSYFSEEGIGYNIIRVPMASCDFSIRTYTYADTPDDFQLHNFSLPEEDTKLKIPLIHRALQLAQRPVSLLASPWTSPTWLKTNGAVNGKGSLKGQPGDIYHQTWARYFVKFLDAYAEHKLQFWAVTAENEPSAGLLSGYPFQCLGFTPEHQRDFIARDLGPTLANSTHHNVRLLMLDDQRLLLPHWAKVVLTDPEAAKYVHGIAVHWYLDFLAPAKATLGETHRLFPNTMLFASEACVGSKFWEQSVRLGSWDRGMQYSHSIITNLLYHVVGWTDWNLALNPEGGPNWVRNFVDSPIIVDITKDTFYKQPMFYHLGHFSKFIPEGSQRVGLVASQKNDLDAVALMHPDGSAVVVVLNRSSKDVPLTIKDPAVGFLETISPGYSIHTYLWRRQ
SMILES,target or system,assay,test system,setting,scale,quantity,value
COc1cc(O)ccc1CCC(c1ccc(O)cc1)c1cc2c(c(C)c1O)OC(c1ccc(O)cc1)CC2 (mixture of isomers),,,human blood,"3 µM, together with: A23187",,arachidonic acid level,86700 ± 4320 pg/mL
OC[C@@H]1[C@@H](O)[C@H](O)[C@@H](O)CN1CCCCOCCC12CC3CC(CC(C3)C1)C2,"Lysosomal acid glucosylceramidase (GBA1, Homo sapiens, UniProt P04062, R534H)","inhibitor, 4MU-β-D-glucopyranoside",,together with: 4MU-β-D-glucopyranoside,,IC50,1290 nM
CCCCC(CSS(=O)(=O)O)NCC(C)C (centres unmarked),,,"Swiss Webster mice, Schistosoma mansoni infected",100 mg/kg,baseline: vehicle control,spleen weight decrease,15%
CCOC(=O)CCCCC1NCCc2cc(O)c(O)cc21 (centres unmarked),,ferrozine,cell-free,"100 µM, DMSO solvent",,Fe2+ chelation,91.74 ± 0.55%
COC1CN([C@H]2CC[C@H]([C@@]3(C)Oc4c(Cl)cc(C(=O)NCc5c(SC)cc(C)[nH]c5=O)c(C)c4O3)CC2)C1,,"RNA-seq, refers to: EIF5A2 mouse homolog","mouse, HT-1376 xenograft, whole blood",dose not given,baseline: vehicle,log2 fold change,0.486
COC1OC(C)C(O)C(OC2OC(C)C(O)C(OC3OC(C)C(O)C(OC4OC(C)C(O)C(OC5OC(C)C(O)C(OC6OC(C)C(O)C(OS(=O)(=O)O)C6OS(=O)(=O)O)C5OS(=O)(=O)O)C4OS(=O)(=O)O)C3OS(=O)(=O)O)C2OS(=O)(=O)O)C1OS(=O)(=O)O (centres unmarked),,,human plasma,128 µg/mL,baseline: control,APTT prolongation,1.2 fold
Nc1nc2cnc(C(=O)N3CCOC[C@@H]3c3ccc(C(F)(F)F)cc3)cc2c2c1COC2,,"ELISA, refers to: SDMA","mouse, HCT-116 MTAP wild type xenograft, tumour","oral, 30 mg/kg once daily",baseline: vehicle,inhibition,56%
COC1OC(C)C(OS(=O)(=O)O)C(OC2OC(C)C(OS(=O)(=O)O)C(OC3OC(C)C(OS(=O)(=O)O)C(OC4OC(C)C(OS(=O)(=O)O)C(OS(=O)(=O)O)C4O)C3O)C2O)C1O (centres unmarked),,,human plasma,128 µg/mL,baseline: control,APTT prolongation,1.1 fold
CN1CCC(N[C@@H]2CCc3[nH]c4c(C(N)=O)ccc(-c5ccccc5Cl)c4c3C2)CC1,,"organoid viability, CellTiter-Glo 3D","sample B colorectal cancer organoid, human",6 days,,IC50,3.34 nM
[Cl-].[Cl-].[Ru+2].c1cnc2c(c1)ccc1cccnc12.c1cnc2c(c1)ccc1cccnc12.c1csc(-c2ccc(-c3nc4c5cccnc5c5ncccc5c4[nH]3)s2)c1,,,air-saturated acetonitrile,,baseline: Ru(bpy)3(PF6)2,singlet oxygen quantum yield,0.73
O=C(CNc1ccc2ccccc2c1)N/N=C/c1ccc([N+](=O)[O-])o1,Trypanosoma cruzi,"reporter mRNA translation, inhibitor, refers to: capped polyadenylated Renilla luciferase mRNA",cell-free extract,concentration not given,baseline: control RNA,relative translation,104%
COCCOCCOCCNC(=O)Cc1cc(CC(=O)N[C@H]2C[C@H]3C(=O)Nc4cc(OCCOCCOCCOC)cc(n4)C(=O)N4CCC[C@H]4C(=O)Nc4cc(OCCOCCOCCOC)cc(n4)C(=O)N4CCC[C@H]4C(=O)Nc4cc(OCCOCCOCCOC)cc(n4)C(=O)N3C2)cc(CC(=O)N[C@H]2C[C@H]3C(=O)Nc4cc(OCCOCCOCCOC)cc(n4)C(=O)N4CCC[C@H]4C(=O)Nc4cc(OCCOCCOCCOC)cc(n4)C(=O)N4CCC[C@H]4C(=O)Nc4cc(OCCOCCOCCOC)cc(n4)C(=O)N3C2)c1,,"anion binding, ITC",water,"298 K, stoichiometry fixed at 1.00, together with: sodium chloride",,ΔG,-12.3 ± 0.6 kJ mol^–1
CC(CCC(=O)NCc1ccc(C(=O)NO)cc1)C1CCC2C3C(O)CC4CC(O)CCC4(C)C3CCC12C (centres unmarked),,refers to: TCA,"PCK rat (Pkhd1 mutant), portal blood","oral gavage, dose not given, 5 months",baseline: total bile acids,relative abundance,18.5%
CN(CC1CCCN(CCc2cccc(C(F)(F)F)c2)C1)C(=O)c1ccco1 (centres unmarked),Trypanosoma cruzi,"reporter mRNA translation, inhibitor, refers to: capped polyadenylated Renilla luciferase mRNA",cell-free extract,concentration not given,baseline: control RNA,relative translation,97.9%

# Repeated from above:
SMILES,target or system,assay,test system,setting,scale,quantity,value
OC[C@@H]1[C@@H](O)[C@H](O)[C@@H](O)CN1CCCCOCCC12CC3CC(CC(C3)C1)C2,"Lysosomal acid glucosylceramidase (GBA1, Homo sapiens, UniProt P04062, R534H)","inhibitor, 4MU-β-D-glucopyranoside",,together with: 4MU-β-D-glucopyranoside,,IC50,1290 nM
